Published values collected from several papers.
Numbered parts are unrelated; each lists some results of a single study.

Block 1
Target: Histone acetyltransferase KAT6A, winged helix 1, GST fusion (KAT6A, Homo sapiens, UniProt Q92794, residues 1-85)
Method: protein binding microarray
Molecule type: double-stranded DNA, one strand shown
Medium: in vitro
Concentration: not given
Setting: 8-mer, flanks averaged, mean of 2 arrays, mostly near background
Baseline: not given
Reading: higher = stronger binding
Quantity: E-score
Target sequence (chain): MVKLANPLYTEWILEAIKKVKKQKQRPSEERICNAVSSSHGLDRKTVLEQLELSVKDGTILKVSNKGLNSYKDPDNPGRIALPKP
CGTTTCGC: 0.152
AGCGACCG: 0.213
AACGGAAG: 0.159
GCTCTAAC: 0.178
AGATTGAT: 0.0192
AAGTAAGT: -0.151
CCATCTTC: -0.177
CGGAAAAA: 0.186
TATATCAA: -0.0931
TAGTACTA: -0.247
GGCTGCCC: 0.102
CCGTACGG: 0.463
CCCGCTAG: 0.31
AGACGATC: -0.0856
CCCGTTCG: 0.215
CCCCAGCC: -0.203
TATCGCAA: -0.103
AAACACTT: -0.175
ATCGGGTA: 0.116
ATCATCGG: 0.0851
AAAGTAGA: -0.301
GGGTATAC: -0.0528
GGTCACAA: -0.0661
AAACTCAT: -0.203
ACCGATCA: 0.0925

Block 2
Target: Cellular tumor antigen p53, full length (TP53, Homo sapiens, UniProt P04637, residues 1-393)
Method: protein-binding microarray
Molecule type: hairpin DNA
Medium: in vitro
Concentration: not given
Setting: whole hairpin DNA, median over replicate spots
Baseline: not given
Reading: higher = stronger binding
Quantity: median fluorescence
CGGACATGCCCGGGGATGTCTCCTGACATCCCCGGGCATGTCCGACACTC: 9480 a.u.
CGGACATGCCTGGGCATGTCTCCTGACATGCCCAGGCATGTCCGACACTC: 18500 a.u.
CCACACCGGGTGGCATGCCTTCCTAGGCATGCCACCCGGTGTGGACACTC: 6930 a.u.
CCAGACGTGGTGGCATGCCTTCCTAGGCATGCCACCACGTCTGGACACTC (5mC at 41): 8060 a.u.
CCACACGTGGAGGCATGCCTTCCTAGGCATGCCTCCACGTGTGGACACTC: 8520 a.u.
CGGACATGCCCGCGCATGTCTCCTGACATGCGCGGGCATGTCCGACACTC (5mC at 31): 12100 a.u.
CGGACATGCCCCGGCATGTCTCCTGACATGCCGGGGCATGTCCGACACTC (5mC at 12): 16400 a.u.
CCACACATGGTGGCATGCCTTCCTAGGCATGCCACCATGTGTGGACACTC: 7430 a.u.
CGGACATGCCCGGGCGTGTCTCCTGACACGCCCGGGCATGTCCGACACTC (5mC at 29): 16600 a.u.
CGGACATGCCCGGGTATGTCTCCTGACATACCCGGGCATGTCCGACACTC: 9820 a.u.
CGGACACGCCCGGGCATGTCTCCTGACATGCCCGGGCGTGTCCGACACTC (5mC at 7 37): 16800 a.u.
CCACACGTGGTGCCATGCCTTCCTAGGCATGGCACCACGTGTGGACACTC: 4690 a.u.
CCACACGTGGTCGCATGCCTTCCTAGGCATGCGACCACGTGTGGACACTC (5mC at 12): 5720 a.u.
CGGACATGGCCGGGCATGTCTCCTGACATGCCCGGCCATGTCCGACACTC: 15300 a.u.
CCACACCGGGTGGCATGCCTTCCTAGGCATGCCACCCGGTGTGGACACTC (5mC at 37): 6180 a.u.
CCACACGTGGTGCGATGCCTTCCTAGGCATCGCACCACGTGTGGACACTC (5mC at 13 31): 5090 a.u.
CCACACGTGGTGTCATGCCTTCCTAGGCATGACACCACGTGTGGACACTC: 5930 a.u.

Block 3
Target: RNA binding protein fox-1 homolog 2, RRM domain, GST-SBP tag (RBFOX2, Homo sapiens, UniProt O43251-10, residues 100-194)
Method: RNA Bind-n-Seq
Molecule type: RNA
Medium: in vitro
Concentration: 365 nM
Setting: natural RNA segment, single round, ends assumed
Baseline: no-protein control
Reading: higher = stronger binding
Quantity: RBNS enrichment (R)
All sequences stand within: GGGAGUUCUACAGUCCGACGAUC … UGGAAUUCUCGGGUGCCAA
Residues (chain): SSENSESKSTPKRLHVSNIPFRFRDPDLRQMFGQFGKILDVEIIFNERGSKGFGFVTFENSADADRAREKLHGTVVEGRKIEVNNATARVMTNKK
CCCACCUCCAUGGUGGCCCAGGCUGCAGGGCUCACGGUGGGCCCACGGUGGAGGCCUCAGGCAGCUUUCUCUCCAGCUACCCAUUGGCUUAGGACACACAGAUAAAGUAG: 0.411
UUGAAAUUAACUUGGUAGAUGGCUUUAGCUUAGAAAAGCAGCUUCUUAGAACCAAGGGCCUCAUUAUGGUCACUCACAGCUCAGUUAUGGUCUUGCCCCAGCUGGCCCUG: 0.435
CUGGAGCUGGCCAUCCCAAAUUCAAUCAGUCCAUAGAGACGAACAGAAUGAGACCUUCCGGCCCAAGCGUGGCGCUGCGGGCACUUUGGUAGACUGUGCCACCACGGCGU: 0.369
AUUAAGAACACUAAAAAGUCCUUGCAAGAAUGGAGAUAUGCAUUCAAGAGAGGUGCUAUCACAUAGAUCUAGUCUGAAGUCUGGAACACUUUCCUCUUCUAUGACCCCUC: 0.394
AGCCAGCGACGUGGUGGUCAUCAGAAUAACUACAAGCCAUACUGAGAGGCAGCAGGAGCGGCCGAGUGACGACCGCACACGCUUUGUUUGGACGCGGAGUGAACACAAUU: 0.641
UUUGUUUUUGUUUUUUAAGGGAAACGAAAUGGAAUUCGAAGGGACCUUUUCACUAACCCCACUUCUGUGUGUUCUGCAUGGCGCCUGCCCCAGGGCAUCUGCCAACUCCA: 0.548
AAGUAAAUAAGUAUCCUUGCCAAGUGAUCAUGAGUGUCAUUUUUGUUCUAAGACUAAUAUUUUUAGAUCUUUUUACUUCACCUCAUACUUAUCACCAAUGUAUAUCUCCA: 0.343
UUUGUGUAAUUGGUUUGAAAAACAGUGAAAUGGGUAAACGCAAAACUUUUGUACUUUAUUACGAGUAAAGUGUAAUGAGUACUGUGGAAACCAAAUUUGAAUACUGCAAA: 0.395
GCUAGUAGUGUUCUAGAUUAUGUCUUUCCAAAGCGCUGAGGCUGUGCACCUAUUCUGUAGUUGCAGCUGAUGCCUGAAUGUAUCCUAGCUGACAAAUUAUUGAUUAAUAA: 0.212
UCCUUCACCCUGACAGUUUAACUUCAGCGUUUCUCUGUGCAGUUGCGGUCACCAUGGGUGAGCACUGUCUGUGCACGUGCCAGGGAGGAGAUGGCUGGGACCACUGCACA: 1.1
AUUAUUUUGAUGUAUUAAGAUGAAUAUUGCUGAUUUAAAUUUUAUUUAUGCACAUACUUAAAGGACAGAAAUGUCUGGGAAAGUAAUUGUUAAAUAAUGAUAUGUAACUU: 0.476
UCCCAUCAAGAUGGGUUAGUAGCAGUGUCUGUUUUUGAAUGCCAAGUGUGAUUUCCAACAAUUCUGCUCUGGUUAUUUCAUUGAAGACAUCUUUGCACAUGUGACCAUGC: 0.419

Block 4
Target: Interferon regulatory factor 5, full length, phosphomimetic (IRF5, Homo sapiens, UniProt Q13568-2, residues 1-514, S451D/S453D/S456D/S462D)
Method: protein-binding microarray
Molecule type: double-stranded DNA, one strand shown
Medium: in vitro
Concentration: 940 nM top
Setting: 60-bp whole probe
With: salmon DNA 0.4 mg/ml
Baseline: random background probes
Reading: higher = stronger binding
Quantity: fitted relative affinity
All sequences stand within: GCCTAGCAC … GTCTTGATTCGCTTGACGCTGCTG
TGTTTTTGCTTTCTTTTTGCGTGCTAG: 2.01 z-score
TTAGGTTTCGACTTTCGGCTAGTGCTA: 8.86 z-score
TTAAGTTTCCTTTCCCTTTAGTGCTAG: 2.48 z-score
GGCGGTCTCGGTCTCGGGACGTGCTAG: 4.53 z-score
TAGTTTATACTCTAGATGATGTGCTAG: -0.262 z-score
TAAGGACTGGACTTTCGGTTAGTGCTA: 2.93 z-score
TCAGGTTTCGACACTGGGTTAGTGCTA: 7.06 z-score
CTAGGTTTCGGTCTCGGTTAGTGCTAG: 13.6 z-score
GAATTTCCCACTTTCACTTCGTGCTAG: 3.5 z-score
GACGGTCTCGGTAACGGGACGTGCTAG: 2.8 z-score
GACGAATTCAGTCTCGAGACGTGCTAG: 1.56 z-score
GACGGACCGGGGACTGGGGACGTGCTA: -0.209 z-score
GACGATTTTAGTTTCGAGACGTGCTAG: 6.41 z-score
TTAGGTATCGGTCTCGGTAAGTGCTAG: 10.4 z-score
TCATATTTAAGGCCTATGACTGTGCTA: 0.125 z-score
TACGGACTGCTACTGCTGACGTGCTAG: -0.527 z-score
TCATAATTCTTTGCTCATACTGTGCTA: 0.87 z-score
TCTATTTTCTGAATGTCTTCGTGCTAG: 1.09 z-score
GACGATCTCAATATCGAGACGTGCTAG: 0.343 z-score
TGGAACTTAAAAGAAAGATAGTGCTAG: -0.019 z-score
TTAGGCCTGGGGTATCGGTTAGTGCTA: 2.32 z-score
CAATATATATATTATATATTTGTGCTA: 0.406 z-score
TTTCCTTTATGTACTCTCTACGTGCTA: 2.73 z-score
TTAGGTATCGGTTTCGGTTAGTGCTAG: 13 z-score
AGGACTCTGGAGGTTGAGAAAGTGCTA: -0.651 z-score

Block 5
Target: Max-binding protein MNT, bHLH-zipper, MAX partner unstated (MNT, Homo sapiens, UniProt Q99583, residues 220-300)
Method: protein-binding microarray
Molecule type: double-stranded DNA, one strand shown
Medium: in vitro
Concentration: not given
Setting: k-mer, scored over probes, only values ≥0.25
Reading: higher = stronger binding
Quantity: E-score
Target sequence (chain): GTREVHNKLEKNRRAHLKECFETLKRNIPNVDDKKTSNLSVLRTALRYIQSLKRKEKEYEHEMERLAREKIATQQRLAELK
CATGGCGA: 0.266
CGCGAGCA: 0.275
CGCCCCTC: 0.261
ACATGACG: 0.276
CAACGTGG: 0.461
TAGGGGCA: 0.26
CATGTTCG: 0.266
CCCTCACG: 0.27
AACTCATG: 0.3
AGCACACG: 0.343
CGTGGTTC: 0.341
GCGTGGCC: 0.408
GCACGCGA: 0.429
CCATGCGG: 0.449
AGCCACGA: 0.273
GCATGCGC: 0.428
GAACGTGA: 0.272
CACCTGTA: 0.272
CACGCATC: 0.313
ACGTGGCC: 0.42
ACACGCAT: 0.345
CAGACACG: 0.366
AGCGTGGC: 0.387
CGTGCGGC: 0.372
ATGTGTTG: 0.259

Repeated from above (block 1):
AGATTGAT: 0.0192
AAGTAAGT: -0.151
CCATCTTC: -0.177
CGGAAAAA: 0.186
TATATCAA: -0.0931
TAGTACTA: -0.247
